Results pooled from the literature.
Protocols differ between the studies behind these lines. Values joined by “and” are separate records of one study, mostly repeats; a detail may differ.
Sequence of UniProt Q8VD66 (whole entry, looked up): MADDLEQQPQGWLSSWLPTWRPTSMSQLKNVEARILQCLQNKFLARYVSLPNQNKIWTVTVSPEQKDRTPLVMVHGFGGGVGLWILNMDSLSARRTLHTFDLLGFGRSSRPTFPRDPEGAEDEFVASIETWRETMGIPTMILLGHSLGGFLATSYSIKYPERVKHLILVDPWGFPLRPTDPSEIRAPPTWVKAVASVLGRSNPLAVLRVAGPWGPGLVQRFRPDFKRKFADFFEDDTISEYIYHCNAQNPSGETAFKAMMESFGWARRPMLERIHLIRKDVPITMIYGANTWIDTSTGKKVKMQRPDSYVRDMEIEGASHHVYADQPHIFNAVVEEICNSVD
Sequence of UniProt Q9Y2J8 (whole entry, looked up): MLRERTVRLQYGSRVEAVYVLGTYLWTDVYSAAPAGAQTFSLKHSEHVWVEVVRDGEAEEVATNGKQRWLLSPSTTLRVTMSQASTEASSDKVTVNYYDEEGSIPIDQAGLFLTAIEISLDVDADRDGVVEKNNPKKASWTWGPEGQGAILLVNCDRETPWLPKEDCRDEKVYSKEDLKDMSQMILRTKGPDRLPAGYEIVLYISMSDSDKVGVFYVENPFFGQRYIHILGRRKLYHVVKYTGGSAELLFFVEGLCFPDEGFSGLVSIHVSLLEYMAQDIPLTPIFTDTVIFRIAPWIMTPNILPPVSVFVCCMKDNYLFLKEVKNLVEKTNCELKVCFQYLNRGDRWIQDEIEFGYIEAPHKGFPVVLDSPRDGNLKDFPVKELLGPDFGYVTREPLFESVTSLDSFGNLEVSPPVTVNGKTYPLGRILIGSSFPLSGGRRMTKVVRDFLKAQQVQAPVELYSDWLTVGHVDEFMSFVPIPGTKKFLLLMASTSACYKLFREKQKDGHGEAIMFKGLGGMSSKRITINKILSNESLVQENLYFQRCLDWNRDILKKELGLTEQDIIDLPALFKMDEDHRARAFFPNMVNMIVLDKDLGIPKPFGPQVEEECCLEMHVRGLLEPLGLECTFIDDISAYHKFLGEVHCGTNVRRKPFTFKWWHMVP
Sequence of UniProt P04150 (whole entry, looked up): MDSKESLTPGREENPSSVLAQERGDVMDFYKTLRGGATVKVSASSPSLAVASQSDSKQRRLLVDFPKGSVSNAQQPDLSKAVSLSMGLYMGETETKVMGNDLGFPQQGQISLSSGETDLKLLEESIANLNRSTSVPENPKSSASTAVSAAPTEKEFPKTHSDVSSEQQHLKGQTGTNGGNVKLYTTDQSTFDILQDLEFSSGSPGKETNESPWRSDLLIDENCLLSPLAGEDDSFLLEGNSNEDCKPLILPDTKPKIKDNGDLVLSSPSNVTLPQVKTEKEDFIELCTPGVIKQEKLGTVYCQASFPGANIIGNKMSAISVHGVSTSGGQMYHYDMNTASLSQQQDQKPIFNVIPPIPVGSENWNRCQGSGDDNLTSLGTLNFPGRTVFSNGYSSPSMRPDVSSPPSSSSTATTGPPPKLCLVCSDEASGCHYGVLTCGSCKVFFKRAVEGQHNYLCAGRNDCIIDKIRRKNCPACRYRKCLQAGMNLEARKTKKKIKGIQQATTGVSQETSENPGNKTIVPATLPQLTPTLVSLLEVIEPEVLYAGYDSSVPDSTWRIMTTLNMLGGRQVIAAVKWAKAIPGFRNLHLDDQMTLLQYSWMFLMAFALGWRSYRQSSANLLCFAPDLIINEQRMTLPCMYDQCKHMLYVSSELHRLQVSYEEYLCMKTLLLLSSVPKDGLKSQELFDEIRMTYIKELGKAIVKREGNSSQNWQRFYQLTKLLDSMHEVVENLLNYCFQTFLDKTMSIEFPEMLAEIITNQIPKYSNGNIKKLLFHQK
Sequence of UniProt Q6PHR2 (whole entry, looked up): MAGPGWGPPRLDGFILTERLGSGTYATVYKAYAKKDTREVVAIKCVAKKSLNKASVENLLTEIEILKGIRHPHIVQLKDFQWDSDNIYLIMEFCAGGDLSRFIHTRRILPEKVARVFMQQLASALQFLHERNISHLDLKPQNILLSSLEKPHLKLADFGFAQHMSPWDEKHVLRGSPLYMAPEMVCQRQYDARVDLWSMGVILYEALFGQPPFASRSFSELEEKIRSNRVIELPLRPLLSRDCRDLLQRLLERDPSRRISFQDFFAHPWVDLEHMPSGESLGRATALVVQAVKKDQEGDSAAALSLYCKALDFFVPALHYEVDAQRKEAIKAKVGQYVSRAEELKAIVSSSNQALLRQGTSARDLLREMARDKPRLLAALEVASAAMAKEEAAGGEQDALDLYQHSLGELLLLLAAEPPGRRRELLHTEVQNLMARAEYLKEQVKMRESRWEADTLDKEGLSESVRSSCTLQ
Sequence of UniProt P0A988 (whole entry, unmodified, looked up): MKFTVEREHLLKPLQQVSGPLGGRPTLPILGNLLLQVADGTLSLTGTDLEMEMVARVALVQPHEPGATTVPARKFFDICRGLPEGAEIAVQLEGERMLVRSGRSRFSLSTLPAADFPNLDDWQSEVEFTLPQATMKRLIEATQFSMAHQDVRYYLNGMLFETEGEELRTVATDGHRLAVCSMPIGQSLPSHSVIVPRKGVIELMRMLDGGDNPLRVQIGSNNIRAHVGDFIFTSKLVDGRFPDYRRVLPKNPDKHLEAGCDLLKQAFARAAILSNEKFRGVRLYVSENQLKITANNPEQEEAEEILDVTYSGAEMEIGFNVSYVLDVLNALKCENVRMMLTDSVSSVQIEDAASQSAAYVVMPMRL
Sequence of UniProt Q96LB1 (whole entry, looked up): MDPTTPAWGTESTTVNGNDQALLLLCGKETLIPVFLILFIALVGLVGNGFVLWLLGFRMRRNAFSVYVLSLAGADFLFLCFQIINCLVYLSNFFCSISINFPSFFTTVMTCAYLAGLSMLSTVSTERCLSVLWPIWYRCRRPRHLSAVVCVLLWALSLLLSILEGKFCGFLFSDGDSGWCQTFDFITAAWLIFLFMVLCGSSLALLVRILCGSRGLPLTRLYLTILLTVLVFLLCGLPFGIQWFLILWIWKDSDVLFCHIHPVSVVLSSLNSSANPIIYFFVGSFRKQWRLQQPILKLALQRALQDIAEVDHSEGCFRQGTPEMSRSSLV
Sequence of UniProt P53779 (whole entry, looked up): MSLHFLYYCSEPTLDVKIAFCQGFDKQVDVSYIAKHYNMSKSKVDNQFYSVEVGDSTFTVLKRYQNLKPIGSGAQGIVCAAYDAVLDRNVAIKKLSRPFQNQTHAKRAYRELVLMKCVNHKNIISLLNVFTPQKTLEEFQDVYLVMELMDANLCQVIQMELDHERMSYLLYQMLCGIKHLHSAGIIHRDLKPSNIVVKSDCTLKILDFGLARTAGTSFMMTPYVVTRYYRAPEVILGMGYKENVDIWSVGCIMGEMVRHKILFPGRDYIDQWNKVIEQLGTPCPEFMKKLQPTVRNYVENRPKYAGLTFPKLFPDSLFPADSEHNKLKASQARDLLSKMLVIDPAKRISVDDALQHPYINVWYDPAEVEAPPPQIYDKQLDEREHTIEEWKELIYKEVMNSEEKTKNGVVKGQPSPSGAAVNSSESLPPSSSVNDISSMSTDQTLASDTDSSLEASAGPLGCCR
Sequence of UniProt Q6DWJ6 (whole entry, looked up): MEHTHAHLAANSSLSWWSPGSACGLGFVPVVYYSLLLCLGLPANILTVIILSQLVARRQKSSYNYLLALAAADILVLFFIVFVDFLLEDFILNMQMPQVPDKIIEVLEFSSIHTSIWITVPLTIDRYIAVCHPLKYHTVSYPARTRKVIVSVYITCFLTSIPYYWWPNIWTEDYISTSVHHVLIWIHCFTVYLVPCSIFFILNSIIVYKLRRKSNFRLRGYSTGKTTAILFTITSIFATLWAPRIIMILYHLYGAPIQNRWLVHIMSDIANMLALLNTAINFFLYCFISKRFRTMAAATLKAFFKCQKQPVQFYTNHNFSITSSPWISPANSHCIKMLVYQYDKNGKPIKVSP
Sequence of UniProt Q96GW9 (whole entry, looked up): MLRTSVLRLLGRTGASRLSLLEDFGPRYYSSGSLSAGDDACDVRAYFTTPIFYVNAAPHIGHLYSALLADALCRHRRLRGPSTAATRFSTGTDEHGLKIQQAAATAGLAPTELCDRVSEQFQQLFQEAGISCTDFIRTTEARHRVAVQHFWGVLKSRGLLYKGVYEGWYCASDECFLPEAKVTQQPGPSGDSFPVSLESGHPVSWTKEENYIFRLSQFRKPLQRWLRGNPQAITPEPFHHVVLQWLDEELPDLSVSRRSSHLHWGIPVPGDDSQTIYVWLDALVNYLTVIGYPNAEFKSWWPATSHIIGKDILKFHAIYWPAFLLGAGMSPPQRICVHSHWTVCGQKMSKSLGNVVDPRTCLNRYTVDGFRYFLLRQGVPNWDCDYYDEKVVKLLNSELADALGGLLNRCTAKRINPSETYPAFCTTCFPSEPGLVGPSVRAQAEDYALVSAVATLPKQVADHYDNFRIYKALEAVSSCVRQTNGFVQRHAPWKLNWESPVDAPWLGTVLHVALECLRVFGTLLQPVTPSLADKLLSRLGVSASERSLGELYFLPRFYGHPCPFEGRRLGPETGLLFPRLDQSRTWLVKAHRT
Sequence of UniProt P0AC13 (whole entry, looked up): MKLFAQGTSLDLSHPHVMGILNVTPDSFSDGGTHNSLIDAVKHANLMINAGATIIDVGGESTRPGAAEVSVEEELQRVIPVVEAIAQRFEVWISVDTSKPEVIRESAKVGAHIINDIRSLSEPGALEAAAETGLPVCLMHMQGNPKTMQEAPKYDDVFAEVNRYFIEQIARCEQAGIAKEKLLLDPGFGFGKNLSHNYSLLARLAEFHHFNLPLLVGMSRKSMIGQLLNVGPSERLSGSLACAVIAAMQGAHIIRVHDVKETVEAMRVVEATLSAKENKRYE

Cn1nc(CCN)c(=O)c2c(=O)[nH]c(N)nc21 — melting temperature (folP (Bacteria, UniProt P0AC13); CETSA HiBiT; Escherichia coli, whole cells): 55.7 °C
CC[C@H](C)[C@H](NC(=O)[C@H](CCCNC(=N)N)NC(=O)[C@H](CCCNC(=N)N)NC(=O)[C@H](CC(C)C)NC(=O)[C@H](Cc1ccccc1)NC(=O)CNC(=O)CNC(=O)[C@@H](N)Cc1ccc(O)cc1)C(=O)N[C@@H](CCCNC(=N)N)C(=O)N1CCC[C@H]1C(=O)N[C@@H](CCCCN)C(=O)N[C@@H](CC(C)C)C(=O)N[C@@H](CCCCN)C(=O)O — Emax (GPR139 (Homo sapiens, UniProt Q6DWJ6); GαsS activation, agonist, BRET; HEK293T/17; 40 µM): 5.85%
CN(C)[C@H]1C[C@@]23CC[C@@]4(O2)C(=CC[C@]2(C)[C@@H](c5ccc6ccncc6c5)CC[C@H]24)C=C3[C@@H](O)[C@@H]1O — inhibition (RPS6KC1 (Homo sapiens, UniProt Q96S38); ATP probe labelling, inhibitor, KiNativ profiling; 1 µM): -0.1%
CC(C)CC(O)(CC(C)C)c1cn(C(=O)N2CCCC2)nn1 — activity ratio-of-ratios ((Lyso)-N-acylphosphatidylethanolamine lipase (Abhd4, Mus musculus, UniProt Q8VD66); probe labelling, inhibitor, measured: Abhd4; mouse, brain; i.p., 0.8 mg/kg, 4 h, single peptide; relative to: treated over vehicle mice, lower = stronger inhibition): 0.53 and 0.5 and 0.49 and 0.56 and 0.55 and 0.57
CCOC(=O)[C@@H]1Cc2c(cc([N+](=O)[O-])cc2[N+](=O)[O-])[C@H](O)[C@]12C(=O)Nc1ccc(Br)cc12 — remaining binding (MAPK10 (Homo sapiens, UniProt P53779); KINOMEscan; 100 nM; relative to: DMSO control): 75%
C[C@@H](CNCc1cc(Cl)cc(Cl)c1)CNc1nc2ncccc2[nH]1 — selectivity ratio (MARS2 (Homo sapiens, UniProt Q96GW9); enzyme activity; relative to: human IC50 over T. brucei IC50): > 2
CCCCCCCCCCCCCCCCCC(=O)NC[C@H]1CC[C@H](C(=O)N[C@@H](CCC(=O)NCCCOCCOCCOCCCNC(=O)COCC(=O)N[C@@H](Cc2ccc(O)cc2)C(=O)NC(C)(Cc2ccccc2)C(=O)N[C@@H](CC(C)C)C(=O)N[C@@H](CCCC)C(=O)N[C@@H](CCCNC(=N)N)C(=O)N2CCC[C@H]2C(=O)N[C@@H](CCCNC(=N)NC)C(=O)N[C@@H](CC(N)=O)C(N)=O)C(=O)O)CC1 (some centres unmarked) — activation (MRGPRX2 (Homo sapiens, UniProt Q96LB1); GPCR signalling, agonist; 1 µM): 129%
C/C(=N\OCCCN1CCCCC1)c1ccc(C(F)(F)F)cc1 — activation (NR3C1 (Homo sapiens, UniProt P04150); reporter gene, agonist, luciferase reporter; 10 µM): -0.63%
C=CC(=O)NC[C@H](NC(=O)[C@H](CC1CCCCC1)NC(=O)[C@H](CCC(N)=O)NC(C)=O)C(=O)N[C@@H](CC(C)C)C(=O)N[C@@H](Cc1ccccc1)C(=O)O — ΔH (Beta sliding clamp (Escherichia coli, UniProt P0A988); binding, isothermal titration calorimetry; pH 7.4, 37 °C): -15.9 kcal/mol
N[C@H](C(=O)N1CCCC1)C1CCN(c2nccc3c(-c4ncc(Cl)cc4Cl)cccc23)CC1 — kcat (PADI2 (Homo sapiens, UniProt Q9Y2J8); enzyme activity; 0.0983 µM, high-affinity site, added: Ca2+ 1.5 mM): 1.56 s⁻¹
CN(C)CCCSC(=S)N1CCN(C(=O)/C=C/c2coc3ccccc3c2=O)CC1 — MST response (Nucleoprotein (N, Tomato spotted wilt virus, UniProt P25999, R94A/Y184A); binding, microscale thermophoresis; 31.25 µM; dose series): 1.04 a.u.
CS(C)(=O)=Nc1ccc(-c2ccc(-c3nc4cc(O[C@@H]5CO[C@H]6[C@@H]5OC[C@H]6O)[nH]c4cc3F)cc2)cc1 — inhibition (ULK3 (Homo sapiens, UniProt Q6PHR2); enzyme activity, inhibitor; 10 µM): -22%
O=C1NC(=O)c2c1c1cc(F)c[n+]3c1c1c2c2cc(O)ccc2[n]1[Ru-4]312([N]=C=S)[S+]3CC[S+]1CC[S+]2CC3 (centres unmarked) — remaining activity (PAK3 (Homo sapiens, UniProt O75914); enzyme activity; 100 nM, human enzyme, added: 10 µM ATP; relative to: untreated): 29%
CC(C)[C@H]1NC(=O)C[C@H]2/C=C/CCSSC[C@@H](NC1=O)C(=O)N[C@H](Cc1cccc3ccccc13)C(=O)NCC(=O)O2 — inhibition (BRAF (Homo sapiens, UniProt P15056); 10 µM): 5.3%

Repeated from above:
O=C1NC(=O)c2c1c1cc(F)c[n+]3c1c1c2c2cc(O)ccc2[n]1[Ru-4]312([N]=C=S)[S+]3CC[S+]1CC[S+]2CC3 (centres unmarked) — remaining activity (PAK3 (Homo sapiens, UniProt O75914); enzyme activity; 100 nM, human enzyme, added: 10 µM ATP; relative to: untreated): 29%
CC(C)[C@H]1NC(=O)C[C@H]2/C=C/CCSSC[C@@H](NC1=O)C(=O)N[C@H](Cc1cccc3ccccc13)C(=O)NCC(=O)O2 — inhibition (BRAF (Homo sapiens, UniProt P15056); 10 µM): 5.3%
